# Experimental data of several laboratories.
# Each numbered part is a random draw from the data of one study; scales do not carry over between parts. Changes are numbered by the printed parent chain.

# Sample 1 — method: universal PBM; form: double-stranded DNA, one strand shown; matrix: in vitro; concentration: not given; direction: higher = stronger binding
# Target: Sal-like protein 4, full length isoform B (SALL4, Homo sapiens, UniProt Q9UJQ4-2, residues 1-616)
# Notes: 8-mer, flanks averaged, mean of replicates
# Residues (chain): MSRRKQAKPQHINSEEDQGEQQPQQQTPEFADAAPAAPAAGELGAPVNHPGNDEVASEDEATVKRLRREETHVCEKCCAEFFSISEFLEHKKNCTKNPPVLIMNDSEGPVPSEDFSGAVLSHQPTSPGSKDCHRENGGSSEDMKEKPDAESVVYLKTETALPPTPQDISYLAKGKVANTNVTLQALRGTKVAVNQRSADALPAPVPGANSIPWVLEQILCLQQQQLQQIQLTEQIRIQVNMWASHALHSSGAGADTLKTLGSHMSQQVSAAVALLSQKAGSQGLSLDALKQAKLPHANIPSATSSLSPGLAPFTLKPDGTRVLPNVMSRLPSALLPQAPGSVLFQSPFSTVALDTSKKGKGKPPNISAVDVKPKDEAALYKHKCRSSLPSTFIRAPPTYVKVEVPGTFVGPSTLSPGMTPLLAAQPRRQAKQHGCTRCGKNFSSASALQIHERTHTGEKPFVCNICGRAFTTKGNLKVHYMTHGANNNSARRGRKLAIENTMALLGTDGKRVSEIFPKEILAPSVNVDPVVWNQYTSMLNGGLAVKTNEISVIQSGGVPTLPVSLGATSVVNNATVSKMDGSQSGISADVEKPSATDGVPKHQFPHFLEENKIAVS
Oligonucleotide,E-score
ATAATTCC,0.366
CTGACGAC,-0.0772
ATAGCTCG,-0.0743
ATTCCCTA,0.198
CCGTTCCA,0.0388
GTTCAATA,0.259
TCGGTAAA,0.114
CTGCAAGA,0.0323
GGTCATGA,0.0438
TAGCACGA,-0.0565
GAAGAACA,0.111
TAACGCAA,0.164
CCTGGGTC,-0.289
GCCCGAAC,-0.227
AGGCCTGC,-0.276
GGAAGTCC,-0.23
AATTACTA,0.281
ACTGTCAA,0.0459
CCTTATCC,-0.112
GAACTAGC,-0.125
CCATCAGG,-0.334
GCTAAGCA,-0.126
ATGTAGGA,0.0763
AAGAGTCG,-0.0544
CCACAATC,-0.0833

# Sample 2 — target: UBE2E3 UBC core domain (UniProt Q969T4); method: yeast two-hybrid; matrix: yeast; notes: mostly zero background; relative to: not given; direction: higher = stronger interaction
# UniProt Q969T4, sequence (whole entry, looked up): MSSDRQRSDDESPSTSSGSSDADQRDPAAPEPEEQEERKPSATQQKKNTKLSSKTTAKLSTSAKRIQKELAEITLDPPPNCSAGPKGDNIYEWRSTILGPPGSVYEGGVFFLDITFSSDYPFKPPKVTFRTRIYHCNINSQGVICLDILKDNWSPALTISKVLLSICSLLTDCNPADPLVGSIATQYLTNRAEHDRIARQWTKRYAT
# B1: TRIM26 RING domain (UniProt Q12899); chain PLRSLEEEVTCSICLDYLRDPVTIDCGHVFCRSCTTDVRPISGSRPVCPLCKKPFKKENIRP
# B2: ANAPC11 RING domain (UniProt Q9NYG5); chain GICRMAFNGCCPDCKVPGDDCPLVWGQCSHCFHMHCILKWLHAQQVQQHCPMCRQEWKFKE
# B3: RNF31 RING domain (UniProt Q96EP0); chain AFLRRLLAQECAVCGWALPHNRMQALTSCECTICPDCFRQHFTIALKEKHITDMVCPACGRPDLTDDTQLL
# B4: TRIM22 RING domain (UniProt Q8IYM9); chain VKVDIEKEVTCPICLELLTEPLSLDCGHSFCQACITAKIKESVIISRGESSCPVCQTRFQPGNLRP
# B5: MKRN2 RING domain (UniProt Q9H000); chain FAFQASQDKVCSICMEVILEKASASERRFGILSNCNHTYCLSCIRQWRCAKQFENPIIKSCPECRVISEFVIPSV
# B6: RNF152 RING domain (UniProt Q8N8N0); chain ETLSQDSLLECQICFNYYSPRRRPKLLDCKHTCCSVCLQQMRTSQKDVRCPWCRGVTKLPPGFS
# B7: TRIM60 RING domain (UniProt Q495X7); chain ALVNLQEESSCPICLEYLKDPVTINCGHNFCRSCLSVSWKDLDDTFPCPVCRFCFPYKSFRR
# B8: RNF122 RING domain (UniProt Q9H9V4); chain AKKLQLYGQTCAVCLEDFKGKDELGVLPCQHAFHRKCLVKWLEVRCVCPMCNKPIASPSEAT
# B9: TRIM31 RING domain (UniProt Q9BZY9); chain FVNKLQEEVICPICLDILQKPVTIDCGHNFCLKCITQIGETSCGFFKCPLCKTSVRKNAIRF
# B10: MYCBP2 RING domain (UniProt O75592); chain TSLKQDADDMCMICFTEALSAAPAIQLDCSHIFHLQCCRRVLENRWLGPRITFGFISCPICKNKINHIVLKD
Molecule,lacZ reporter activity
B1 (TRIM26 RING domain),0
B2 (ANAPC11 RING domain),0
B3 (RNF31 RING domain),0
YCEMGSTFQLCKICAENDKDVKIEPCGHLMCTSCLTAWQESDGQGCPFCRCEIKGTEPII (CBLB RING domain (UniProt Q13191)),0
QVQSRTKIEECVVCSDKKAAVLFQPCGHMCACENCANLMKKCVQCRAVVERRVPFI (MIB1 RING domain (UniProt Q86YT6)),0
B4 (TRIM22 RING domain),0
B5 (MKRN2 RING domain),0
B6 (RNF152 RING domain),0
B7 (TRIM60 RING domain),0
MNDVLENELQCIICSEYFIEAVTLNCAHSFCSYCINEWMKRKIECPICRKDIKSKTYSL (RNF8 RING domain (UniProt O76064)),0
B8 (RNF122 RING domain),0
FVKTVEDKYKCEKCHLVLCSPKQTECGHRFCESCMAALLSSSSPKCTACQESIVKDKVF (TRAF3 RING domain (UniProt Q13114)),0
LDAASGHPLVCPLCHGQYERPCLLDCFHDFCTGCLRGRATDGRLSCPLCQHQTLVKGPSG (Rnf207 RING domain (UniProt Q3V3A7)),0
YPEEVDDDLICHICLQALLDPLDTPCGHTYCTLCLTNFLVEKDFCPMDRKPLVLQHCKK (LNX1 RING domain (UniProt Q8TBB1)),0
LGTKLEAKYLCSACRNVLRRPFQAQCGHRYCSFCLASILSSGPQNCAACVHEGIYEEGIS (TRAF2 RING domain (UniProt Q12933)),0
B9 (TRIM31 RING domain),0
B10 (MYCBP2 RING domain),0

# Sample 3 — method: RNA Bind-n-Seq; form: RNA; matrix: in vitro; concentration: 100 nM; relative to: input RNA pool; direction: higher = stronger binding
# Target: RING finger protein unkempt homolog, zinc fingers 1-6, SBP tag (UNK, Homo sapiens, UniProt Q9C0B0, residues 30-357)
# UniProt Q9C0B0, sequence (30-357, looked up): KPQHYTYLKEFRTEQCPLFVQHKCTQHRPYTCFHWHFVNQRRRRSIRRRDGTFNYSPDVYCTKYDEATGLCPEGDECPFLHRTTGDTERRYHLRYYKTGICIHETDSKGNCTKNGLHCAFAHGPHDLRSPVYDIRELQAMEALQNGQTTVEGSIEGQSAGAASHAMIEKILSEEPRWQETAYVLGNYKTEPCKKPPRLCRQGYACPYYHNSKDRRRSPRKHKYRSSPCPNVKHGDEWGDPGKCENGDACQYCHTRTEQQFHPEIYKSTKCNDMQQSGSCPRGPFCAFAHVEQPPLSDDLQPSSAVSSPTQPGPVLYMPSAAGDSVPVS
# Notes: RNA with constant flanks, vertebrate orthologous sites, ends assumed
# Constant ends, left off below: GGGAGUUCUACAGUCCGACGAUC … CAACAGAGGAUUGAGCAUCA
Oligonucleotide,bound/input enrichment
UCUAAAGUUAUAGGAAAGGAGCCAAGUAGUAGCACCUUUUUAUGUAAACGUGAAAACAACUUGAUCCAGCCUCUUUCCUUACACUCAAUUUAAAAGUAGAAAAUACCUCAGCAGUUGUUU,0.338 ratio
AGAACUCUUGCAGUCUUAGAUGUUAUAAAAAUAUAUAUAUAUCUGAAUUGUAAGAGUUGUUAGCACAGUUUUUUUGUUUGUUUUUAAACACUUGUUUUGGGUACAAGGCAUUUCUGAAAU,0.58 ratio
GUAUCUUGGUUUGGGGUAGAGGGGAGGGAGGGGCAGAGCUGUGGAAUCUCUCCGGUAUAUGGGUAGAUAAGUGGACCUAUGUUAACCUCUGGGGCAUCUGUUUUGGGGGUGAGUAUGGGU,0.491 ratio
GAUCAUUUUUUUAUUUCUUGUAUACAUGAUCUAGUCCUCUUGUUUUCUUACACGGUUGUUUGUCAGUAUGUCUGUCACAUUUCCUUCUCAGGCGAAGGGCUAGAGUUUUCAAAACACAAA,0.527 ratio
UGGGCAUCCUCUCUGGGGAGCUGCUGGCCGCUUAGCGUUGUUUGACUUUUGACCUUGACAUAGUACAUAGGCUUGUGGUUUUUUUUAAUUUAAAGAUAUUAAGACUUAAUUCACUAAAAU,0.774 ratio
AGAAAAUUUUAACCAAGAAUCUGAAGGUAGAAAUACAGGACCAUGGUUAUCUUCCUCACUUAGAAAUAGAUGCACACCUUUGUUCUCUAGAAGGAGGCGAGAGGGAAGAGAUGAAUCUUC,0.777 ratio
GUCAUCGGAUUGGAUGAAGACCGUCCCGAGUUACAACCAAACCAAUAGCUCCAUGGACUUCAGAAAUUACAUGAUGAGAGAUGAGAAUCUGGAACCGCUGCCCAAAAACUGGGAGAUGGC,0.416 ratio
CUACACCAGAUAUUUUAACUCUUUUAAAGUUAUAAACGUGCUUUGCUUUUUGCAUUUAAAUAGAAUACUUUUAUAUUGUAAGUGCUUCAGAUGUGUGGGGAUGUUAGUUUGCUCUUAUAU,0.82 ratio
AGUGGAUACAACAUAGGAACAUCCAAGGUACUGACUGCAGCUUUAGAUACGUGAUUAGUGUGAGAGUCACAUUCUCUGUGUGAAGAUACAUGUCUUUGAGUAAAUUUCAUCUUUAAUUUU,0.548 ratio
AGUAGUUUUAAGCUUGUUUGCACAGUUCUUUUUUUCCAUUGGAAAUGGAAUUCAUUGCCUUAGGUCUUUUUAAAUAGUGUAUUAUCGUUGGGGCUGGCUCUGUGCUUGAAAACCAGUUUA,2.89 ratio
UGUAUGUAGAGAAAAAUUUUCAUUGCUCCCCACCAUCGUGAAAUUCUCUAGCAAUUUAUUUAGAAUCUUAAUUUUUCUAAUUCAAGCACACUGUAUUAGUCAUUUUUAGCCCAUAAUUAA,1.65 ratio

# Sample 4 — method: DHFR PCA, deep sequencing; matrix: yeast; with: (+)-ABA 1.4 µM; relative to: wild-type fitted maximum; direction: higher = stronger binding
# Target: ABI1, truncated, D143A, DHFR fusion (Arabidopsis thaliana)
# Notes: methotrexate growth selection, single substitutions
# Starting sequence: PYL1, truncated, DHFR fusion (Arabidopsis thaliana); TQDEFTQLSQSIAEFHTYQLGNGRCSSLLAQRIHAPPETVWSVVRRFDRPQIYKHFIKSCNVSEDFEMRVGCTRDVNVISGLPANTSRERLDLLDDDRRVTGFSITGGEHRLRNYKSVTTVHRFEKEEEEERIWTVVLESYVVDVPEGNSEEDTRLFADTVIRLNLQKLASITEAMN
Variant,relative binding score
R49L,18.3%
E64M,28.4%
L8F,46.6%
N22D,75.6%
T6A,77.9%
Q10W,33.7%
T120K,1.64%
T154H,-17.7%
E128N,72.1%
K116T,33.4%
V100R,0.347%
S104E,-3.2%
T39W,7.09%
I52T,60.3%
I133N,72.4%
E127S,66.6%
G102L,-5.72%
R163N,-6.97%
R123N,51%
D48I,3.29%
H16P,1.32%
V121E,-5.04%
P36W,6.48%
K54Y,-5.46%
I33T,0.659%

# Sample 5 — target: CCND1, cyclin fold, Cln2 fusion (human); method: yeast growth competition, sequencing; matrix: yeast; notes: weak parent motif; relative to: not given; direction: higher = stronger binding
# Starting sequence: PKMYT1 docking peptide (human); SFEPRNLLSLFED
Variant,normalised enrichment score
SFEPRNNLSLFED [L7N],0.8
SFEVRNLLSLFED [P4V],1
SFEPQNLLSLFED [R5Q],1.51
SFEKRNLLSLFED [P4K],1.2
SFEPRNLLSFFED [L10F],0.866
SFEPRNLLFLFED [S9F],2.5
SGEPRNLLSLFED [F2G],1.01
SFEPRKLLSLFED [N6K],0.796
SFEPRNLLLLFED [S9L],1.23
SFEFRNLLSLFED [P4F],1.05
SFEPRNLLSLFVD [E12V],1.36
FFEPRNLLSLFED [S1F],0.854
SFEYRNLLSLFED [P4Y],0.91
SFEPRNLLSLFEN [D13N],1.4
SFEPRNLLSLFHD [E12H],0.899

# Excerpt of the above (sample 4):
Variant,relative binding score
R123N,51%
R163N,-6.97%
Q10W,33.7%
T120K,1.64%
E64M,28.4%
V100R,0.347%
